Published values collected from several papers.
± marks the error that the study gave.
APP Aβ42 aggregates: Amyloid-beta precursor protein, Aβ42 aggregates (APP, Homo sapiens, UniProt P05067)
Chain of UniProt P05067 (whole entry, looked up): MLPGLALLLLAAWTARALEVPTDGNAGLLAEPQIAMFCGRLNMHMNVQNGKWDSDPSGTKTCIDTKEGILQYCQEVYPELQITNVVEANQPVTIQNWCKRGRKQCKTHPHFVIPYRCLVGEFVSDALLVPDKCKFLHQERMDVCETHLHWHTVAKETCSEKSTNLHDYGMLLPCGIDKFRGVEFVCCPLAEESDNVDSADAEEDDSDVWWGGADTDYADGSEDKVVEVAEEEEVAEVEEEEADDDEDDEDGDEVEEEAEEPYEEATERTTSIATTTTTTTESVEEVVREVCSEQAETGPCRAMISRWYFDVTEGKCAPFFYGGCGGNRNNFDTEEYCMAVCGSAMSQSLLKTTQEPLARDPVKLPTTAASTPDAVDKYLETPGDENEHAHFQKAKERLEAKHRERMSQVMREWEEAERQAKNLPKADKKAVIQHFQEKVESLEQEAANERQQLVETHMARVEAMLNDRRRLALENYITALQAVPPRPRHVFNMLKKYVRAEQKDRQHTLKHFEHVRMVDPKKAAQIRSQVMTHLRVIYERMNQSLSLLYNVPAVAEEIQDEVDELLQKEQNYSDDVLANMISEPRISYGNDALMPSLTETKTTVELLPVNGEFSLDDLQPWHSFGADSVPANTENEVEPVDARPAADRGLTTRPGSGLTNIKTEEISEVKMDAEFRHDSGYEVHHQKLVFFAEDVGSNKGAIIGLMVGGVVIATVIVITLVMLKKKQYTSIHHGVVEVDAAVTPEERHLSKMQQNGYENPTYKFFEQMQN
APP: Amyloid-beta precursor protein (APP, Homo sapiens, UniProt P05067)

COCCOCCOCCOC(=O)/C(C#N)=C/c1ccc2cc(NCCN3CCOCC3)ccc2c1  emission maximum (APP Aβ42 aggregates; fluorescence; with: aggregated Abeta42 5 µM): 540 nm
CCCCN(CCCC)c1ccc(C=C(C#N)C(=O)OCCOCCOCCOC)cc1  emission maximum (APP Aβ42 aggregates; binding, fluorescence spectroscopy; PBS; 4 µM, with: pre-aggregated Aβ(1-42) 5 µM): 468 nm
CC[C@H](C)[C@H](NC(=O)[C@@H]1CCCN1C(=O)[C@@H](N)C(C)C)C(=O)N[C@@H](C)C(N)=O  inhibition (APP; amyloid aggregation, inhibitor, fluorescence; 4 µM, 24 h): 16.3%
[11CH3]Nc1ccc(-c2nc3ccc(O)cc3o2)cn1  distribution volume ratio (APP; binding, PET, reference Logan; control subjects, white matter; relative to: cerebellum): 0.75 ± 0.17
CC(C)C[C@@H]1NC(=O)CN(C)C(=O)CCCC(=O)NCCCC[C@@H](C(=O)N[C@@H](CCCNC(=N)N)C(N)=O)NC(=O)[C@H](Cc2ccccc2)NC(=O)[C@H](Cc2ccccc2)NC(=O)[C@H](C(C)C)NC1=O  inhibition (Amyloid-beta precursor protein, Aβ40 (APP, Homo sapiens, UniProt P05067); aggregation, ThT fluorescence; 5-fold molar excess, pH 7.4, 37 °C, with: Aβ 40 µM): ~95%
CC[C@H](C)[C@H](NC(=O)[C@H](Cc1ccccc1)NC(=O)[C@@H](N)C(C)C)C(=O)N[C@@H](C)C(N)=O  inhibition (APP; amyloid aggregation, inhibitor, fluorescence; 10 µM, 24 h): 57.2%
CC(C)C[C@@H]1NC(=O)CN(C)C(=O)CCCCC(=O)NCCCC[C@@H](C(=O)N[C@@H](CCCNC(=N)N)C(N)=O)NC(=O)[C@H](Cc2ccccc2)NC(=O)[C@H](Cc2ccccc2)NC(=O)c2ccccc2NC1=O  ThT fluorescence (Amyloid-beta precursor protein, Aβ40 fibrils (APP, Homo sapiens, UniProt P05067); fibril disruption; 2-fold molar excess, pH 7.4, 37 °C, with: preformed Aβ1-40 fibrils): decreased
COCCOCCOCCOC(=O)/C(C#N)=C/c1ccc2cc(N3CCOCC3)ccc2c1  emission maximum (APP Aβ42 aggregates; fluorescence; with: aggregated Abeta42 5 µM): 525 nm
CC[C@H](C)[C@H](NC(=O)[C@@H](NC(=O)[C@@H](N)C(C)C)C(C)C)C(=O)N[C@@H](C)C(N)=O  inhibition (APP; amyloid aggregation, inhibitor, fluorescence; 2 µM, 24 h): 58.8%
COCCOCCOCCOC(=O)C(C#N)=Cc1ccc(N(C)C)cc1  maximum inhibition (Amyloid-beta precursor protein, amyloid-beta aggregates (APP, Homo sapiens, UniProt P05067); IgG-amyloid beta binding, inhibitor, ELISA; with: aggregated amyloid beta): 81%
[123I]c1ccc2nc(-c3ccc(-n4ccnn4)nc3)cn2c1  SUVR (Amyloid-beta precursor protein, amyloid-beta (APP, Homo sapiens, UniProt P05067); SPECT; Alzheimer's disease patients, posterior cingulate; 150 to 240 min; relative to: cerebellum): 1.4 ± 0.22
COc1cc(C=CC(=O)CC(=O)C=Cc2ccc(OCC(=O)NCCOCCOCCOCCOCCOCCOCCOCC(F)(F)F)c(OC)c2)ccc1O  band density (APP; Aβ aggregation, SDS-PAGE western blot, item: Aβ1-42 75-200 kDa band; 30 µM, 24 h, 37 °C, with: Aβ1-42 10 µM; relative to: DMSO): 398 ± 37%
COCCOCCOCCOC(=O)C(C#N)=Cc1ccc(C=Cc2ccc(N(C)C)cc2)cc1  fluorescence intensity (APP Aβ42 aggregates; binding, fluorescence spectroscopy; PBS; 4 µM, with: pre-aggregated Aβ(1-42) 5 µM; relative to: probe without Aβ): 2.3 fold

For quick reference, copied from above:
CC[C@H](C)[C@H](NC(=O)[C@@H](NC(=O)[C@@H](N)C(C)C)C(C)C)C(=O)N[C@@H](C)C(N)=O  inhibition (APP; amyloid aggregation, inhibitor, fluorescence; 2 µM, 24 h): 58.8%
COCCOCCOCCOC(=O)C(C#N)=Cc1ccc(N(C)C)cc1  maximum inhibition (Amyloid-beta precursor protein, amyloid-beta aggregates (APP, Homo sapiens, UniProt P05067); IgG-amyloid beta binding, inhibitor, ELISA; with: aggregated amyloid beta): 81%
